Experimental data collected from several papers.
Parts stem from different laboratories: compare values within a part only. Substitutions count along the parent as printed.

Block 1 — target: CCNB1, cyclin fold, Cln2 fusion (human); method: yeast growth competition, sequencing; sample: yeast; notes: strong parent motif; reference: not given; reading: higher = stronger binding; endpoint: normalised enrichment score
Parent: MASTL docking peptide (human); PMIAKNLMCELDE; partner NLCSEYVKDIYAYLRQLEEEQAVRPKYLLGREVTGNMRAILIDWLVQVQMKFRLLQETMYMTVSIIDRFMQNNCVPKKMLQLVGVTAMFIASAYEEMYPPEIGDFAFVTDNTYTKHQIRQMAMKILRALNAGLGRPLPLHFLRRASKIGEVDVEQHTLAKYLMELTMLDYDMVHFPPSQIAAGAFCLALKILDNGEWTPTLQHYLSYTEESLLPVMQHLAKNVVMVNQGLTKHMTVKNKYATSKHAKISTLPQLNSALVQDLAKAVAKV
PMIAKNLMCELME [D12M]: 1.15
PMIAKNLMCHLDE [E10H]: 0.4
PMIAKNLMCEDDE [L11D]: -0.174
PMIAENLMCELDE [K5E]: -0.126
PMIAKNLMRELDE [C9R]: 2.22
PMIAKGLMCELDE [N6G]: -0.0529
PMIAKNLMCERDE [L11R]: -0.14
PMIAHNLMCELDE [K5H]: 0.179
PMIAKNLMCLLDE [E10L]: 1.76
PMIAKNLMCGLDE [E10G]: 0.0867
PMIAKNLMCEADE [L11A]: 0.08
PMIAKNPMCELDE [L7P]: 0.079
PMIAKNEMCELDE [L7E]: 0.199
PMWAKNLMCELDE [I3W]: 0.429
PMIAKNLMCEVDE [L11V]: 0.0339
PMTAKNLMCELDE [I3T]: 0.706
PMIAKNLTCELDE [M8T]: 0.278
PMIAKNLMCTLDE [E10T]: 0.275
PMIASNLMCELDE [K5S]: -0.292
PMIAKNLMSELDE [C9S]: 2.08
PMIAKNLMCELTE [D12T]: 1.33
PMIAKNLMCYLDE [E10Y]: 1.35
PMIAKNLMCELLE [D12L]: 0.821
PMIAKNTMCELDE [L7T]: -0.456
PMIAKLLMCELDE [N6L]: 0.116

Block 2 — method: RNA Bind-n-Seq; form: RNA; sample: in vitro; concentration: 365 nM; reference: no-protein control; reading: higher = stronger binding; endpoint: RBNS enrichment (R)
Target: RNA binding protein fox-1 homolog 2, RRM domain, GST-SBP tag (RBFOX2, Homo sapiens, UniProt O43251-10, residues 100-194)
Notes: natural RNA segment, single round, ends assumed
Shared flanks, not repeated: GGGAGUUCUACAGUCCGACGAUC … UGGAAUUCUCGGGUGCCAA
Residues (chain): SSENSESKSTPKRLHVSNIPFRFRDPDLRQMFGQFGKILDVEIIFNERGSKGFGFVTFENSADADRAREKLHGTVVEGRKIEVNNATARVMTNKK
CACCCCUCUCUCUCUCUCAACUUCAGAUGCCUCUGGCUGUUCUCAUGUCUAUAAUAAGAACCUCCCCGCAACCAUACGAAGUAUAACCAUACAUCUAUAGUUCUCCCCCG: 0.818
GGGCGAAUGCGUCGCCACCCCUGACCCCGCAUCUGGAGGGCGGGGCUUUGCUUGAGAAGACCCCAGGGAGGACUGUCUUCCACUGCCUGGACUCCUCUCAAGUUGAAGUC: 3.06
AAAUCAGGAACUUUUUUCUAACAAUUUGCUUUUGAAACUUGAAGUCAAGGAAACAGUGUGGUGCAAGUACUGCUGUUCUAGCCCCCAAAGAGUUUUCUGUACAAAAUUUU: 0.545
AAAUGGAGGACCUGGUGCAGUACCUUUCCUCUGAGGCUUGGAUUCCCGUUCUUGGGUGUAAUGUUGCUCCCUGAUCCCAUAUCCCUGUGAAAAUGACUUAGGAAAAAACG: 0.84
UUACCCUCAGCCACUUCCUCUGGCUGUCACAGAACAGGAUGGUGGCCUGGGGGAUGCACACUUGUAGCCUCAGAGCUAAGAGGACUCGGUGGAUGGAGCAAGACUGUGAA: 0.63
CAAAGGUUGAGAAUGAGAAUUGUUUUUUCCUGGAUAUCAAAGGGAUUAUCACAGCGCAAUCAUUGUCUACACAACAUGUACUCUCAACGCCUGGGUUACAUAGGAAAUGC: 6.96
GCAUGGAGAGAUGGUCAUUUCGUGGUCUACUGGAUGAGGCCUAUAGUUGAGACUUGUAGACAUUUAUUUAUACUGUGUCAUGUUUUAUAAUUUAUACAUAAAAUGUCUGG: 30.5
AACCCUUUGAACCUGAUGUGACUUCAGCAAUAACCUUCACCUGACUCUGGAGCCUCCGUCUCUUCGAUUAUAAAGACACCCGUCCUUAAGACAGCCGCUCCUUGGACACU: 0.31
AUGGUGUAUUCACUCUUGGAAAAUAUGUAAUAGUUGUGUAUCCAGAAUAUGUGUCUUCACCUGAAUAUUUAAUCUUUAUAUUUACAAAAAAAUAAGUUCCACAAGAUGGA: 0.553
ACAGCAGGGAAGCGGGAGGAGCUGAGAACUAUUAGAAGUUCCUAUUAUUUAUAAAUUCCACCCAAAGUGGACAGAGUCAGGUGCCAGACCUGAUCUGAAGUGCACCAAGG: 0.819
UUUCUGCUGACAACUUAGGUUGUAUGAGUUAUGCUUAAAAGCUUUAAAUCGGAUGUUUCCUGUACCUGCCACACUAUGUUAGAAUGUGUCCUUCAACCAUAUCCUGCAAC: 0.409
UGGUUGUGUUAACAGAGCACAUUUUGUUGGGUGAGUCCUAUGUGAUUUUUUUCAUGUUUGUUUUAUCUGGGGGUUGUUCAUGAAACUGACAGAUGUUUUUCUAAAAAGGA: 0.768

Block 3 — method: RNA Bind-n-Seq; form: RNA; sample: in vitro; concentration: 200 nM; notes: whole 134-nt RNA, ends assumed; with: 150 mM LiCl; reference: input library; reading: higher = stronger binding; endpoint: log2 enrichment; all molecules: 7-deaza-guanosine replaces G
Target: Fragile X messenger ribonucleoprotein 1, C-terminal low-complexity region (Fmr1, Mus musculus, UniProt P35922)
Shared flanks, not repeated: GGGAGUUCUACAGUCCGACGAUC … UGGAAUUCUCGGGUGUCAAGG
GGAUUGGUAGCUUAUGUCGAUCUUGAUGAAAGAGCAAUUGAUGCUCUCAGGGAAUUUAAUGAAGAAGGAGCUCUGUCUGUACUACAGCAG: 0.282
UCCUGUGCUACACAUCGUAUGUACCGAAUCGGGAAAAAAGGGAAAAAAGGGAAAAAAGGAAAGUAUUAUGUUACGCCGUUCGGAUCUGCA: -0.0413
CCUGUGCUACACAUCGUAUGUACCGAAUCGGGCCCCCCGGGCCCCCCGGGGCCCCCCGGGAAAGUAUUAUGUUACGCCGUUCGGAUCUGC: -2.52
CACAGACAACACGCACCCACACAGACACAGAGGGAAGGGGUUGGGAUGGGGACAGGGUGUACAGCAGGGCGGGGUAGGACCCCAGCCCCU: 0.284
CCUCAAGUCCUGUGCUACACAUCGUAUGUACCGAAUCGGGGCCGGCCGGCCGGAAAGUAUUAUGUUACGCCGUUCGGAUCUGCACUUCCA: 0.592
GCAGGAAGUAAAAACAAAUGGAAAUGCUUCGGAUAGUGGCAAAAGUGGGGGUUGCUAAGGAAAGGGUGGGAUGGGAGUGGGUAAAGAGUU: 1.32
AAGUCCUGUGCUACACAUCGUAUGUACCGAAUCGGGGAGGGGAAAAAGGGGAGGGGAAAGUAUUAUGUUACGCCGUUCGGAUCUGCACUU: 0.703
ACCAUGCAGGUGGGCAUCUUUGGGAAGUGGGGCAAGGGGGGGAUAGGGAGGGGGUUAACACUUUGGGAACAGGUGGUCCCAGGUCGUUUC: 1.46
CCUCAAGUCCUGUGCUACACAUCGUAUGUACCGAAUCGGAAAAAGGUGGAGGAAAGUAUUAUGUUACGCCGUUCGGAUCUGCACUUCCAG: -0.0643
UGGAACAGCAGCUGCCACUCAGGCGUAAUUCCCACCUAGAGGAGAGUUUCACAUCCACCGAAGAAUCUUCCGAAGAAAAUGUCAACUUUU: 1.18
AAGUCCUGUGCUACACAUCGUAUGUACCGAAUCGGAAAAGGGGAAAAGGAAAAGGGAAAGUAUUAUGUUACGCCGUUCGGAUCUGCACUU: -0.565

Block 4 — method: protein-binding microarray; form: double-stranded DNA, one strand shown; sample: in vitro; concentration: not given; reading: higher = stronger binding; endpoint: E-score
Target: Protein max, full length (MAX, Homo sapiens, UniProt P61244-2, residues 1-151)
Notes: k-mer, scored over probes, only values ≥0.25
ACATATGA: 0.287
CATCGTGC: 0.346
GCGCGCAC: 0.294
ACTCGTGC: 0.374
ATGCGGTC: 0.259
CAAACGTG: 0.365
GAGTGCAC: 0.315
CAATGTGC: 0.367
CGGCGTGA: 0.336
CGCGTGCC: 0.437
CGTGCCAC: 0.388
ATCATGCG: 0.412
ACACCTGT: 0.342
ATGAGCAC: 0.29
CTACACGC: 0.389
AATGCGTG: 0.31
CTCGTGCC: 0.4
AGAAGCAT: 0.288
ACGCGCCA: 0.29
TCCATGCA: 0.267
GGAACGCA: 0.282
CATGATCA: 0.258

Block 5 — method: protein binding microarray; form: double-stranded DNA, one strand shown; sample: in vitro; concentration: not given; reference: not given; reading: higher = stronger binding; endpoint: E-score
Target: Histone acetyltransferase KAT6A, winged helix 2, GST fusion (KAT6A, Homo sapiens, UniProt Q92794, residues 85-181)
Notes: 8-mer, flanks averaged, mean of 2 arrays, mostly near background
Residues (chain): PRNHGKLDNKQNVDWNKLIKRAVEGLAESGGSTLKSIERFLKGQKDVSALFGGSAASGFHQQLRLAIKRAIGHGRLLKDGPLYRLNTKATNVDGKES
GACCTGGC: 0.0763
AATGGGCA: -0.0238
ACAATACC: -0.0908
CACCACGG: -0.178
GCGTAACA: -0.112
AGGCTGAG: -0.127
GCCGCGAA: 0.0255
AGATGGTC: -0.0606
ACGCACGT: -0.226
GAGAAATC: 0.0418
GTTATACA: -0.138
AGACCTAC: 0.0835
CCTCGGAG: 0.236
CCTCCACC: 0.0979
AAATATGC: 0.00261
GGATTACA: -0.144
AGTGAGAG: -0.042
AGTTCTGA: 0.0863
AGCGTAAC: -0.0185
ACTAGGAT: -0.0859
